Measured values pooled from the literature.
Lines come from different studies, so protocols differ. Numbers after ± are the reported error.

For `CC[C@H](C)[C@H](NC(=O)[C@H](CCCN)NC(=O)[C@H](CC(N)=O)NC(=O)[C@H](Cc1c[nH]c2ccccc12)NC(=O)[C@H](Cc1ccccc1)NC(=O)[C@H](CCCN)NC(=O)[C@H](CCCCNC(=N)N)NC(=O)[C@H](CC(C)C)NC(=O)[C@H](Cc1c[nH]c2ccccc12)NC(=O)[C@H](CCCN)NC(=O)[C@H](CCCCNC(=N)N)NC(=O)[C@H](CC(C)C)NC(=O)CNC(C)=O)C(=O)N[C@@H](CCCN)C(=O)N[C@@H](CCCCNC(=N)N)C(N)=O`, the survival was 33% (Kunming mice; intravenous, 20 mg/kg, 5 days).
`[3H]c1sc(C)nc1C=C(C)C1CC2C(CCCC(C)C(O)C(C)C(=O)C(C)(C)C(O)CC(=O)O1)N2CCO` (stereo not shown) has a tumour concentration of 240 ± 20 ng/g (CD2F1 mice, M109 tumour (FR−); intravenous, 2.2 nmol/kg, 24 h).
`CCCCCCCCCCCCC(=O)O.O=C1CCCC2C3CCCN4CCCC(CN12)C34` (stereo not shown) — result for “limiting molar conductivity”: 51.68 ± 0.07 S cm²/mol (conductometry; water; 308.15 K).
`C=CC1CN2CCC1CC2C(O)c1c(-c2ccc(N=Nc3ccccc3)cc2)cnc2ccc(OC)cc12` (stereo not shown) — result for “photoisomerization quantum yield”: 0.32 (480 nm irradiation).
Under “hydrolysis rate constant”, `CCCCCCCCNP(=O)(Oc1ccccc1)O[C@@H]1O[C@H](CO)[C@@H](O)[C@H](O)[C@H]1F` (stereo partly shown) is recorded as 0.0014 min⁻¹ (phosphate buffer with DMSO; 100 µM, pH 6.8, 37 °C).
The AUC of `COc1cc(NC(=O)C(=O)c2c(C)n(Cc3ccc(Cl)cc3)c3ccc(C)cc23)ccn1` is reported as 3030 ng·h/mL (male cynomolgus monkey, plasma; oral, 10 mg/kg).
`CN(C)C(CNC(=O)Nc1cc(C(F)(F)F)ccc1N1CCOCC1)c1ccncc1` (stereo not shown) has a serum glucose of 242 mg/dL (mouse, serum; intraperitoneal, 180 mg/kg single dose).
`CCCC[C@H]1C(=O)N(C)[C@@H](CCCC)C(=O)N[C@@H](CCCNC(=O)CN2CCN(CC(=O)O)CCN(CC(=O)O)CCN(CC(=O)O)CC2)C(=O)N[C@H](C(=O)NCC(N)=O)CSCC(=O)N[C@@H](Cc2ccc(O)cc2)C(=O)N(C)[C@@H](C)C(=O)N[C@@H](CC(N)=O)C(=O)N2CCC[C@H]2C(=O)N[C@@H](Cc2c[nH]cn2)C(=O)N[C@@H](CC(C)C)C(=O)N(C)CC(=O)N[C@@H](Cc2c[nH]c3ccccc23)C(=O)N[C@@H](CO)C(=O)N[C@@H](Cc2c[nH]c3ccccc23)C(=O)N1C` [gallium-68 labelled] gave a tissue-to-tissue ratio of 10.3 ± 1.66 (NOD/SCID mice, CHO-hPD-L1 xenograft, tumour over muscle; iv, dose not given, 60 min; baseline: tumour over muscle).
Under “metabolic stability ratio”, `C/C(=N\OCCCN1CCCCC1)c1ccc(C(F)(F)F)cc1` is recorded as about 3 fold (liver microsomes; baseline: human over mouse).
With `COc1cc2c3c(c4cc(OC)c(OC)c(OC)c4c2cc1OC)CC1CCCCN1C3` (stereo not shown) the CC50 was 48.3 ± 3.07 µM (swine cells; 24 (unit not given)).

For quick reference, copied from above:
`CN(C)C(CNC(=O)Nc1cc(C(F)(F)F)ccc1N1CCOCC1)c1ccncc1` (stereo not shown) has a serum glucose of 242 mg/dL (mouse, serum; intraperitoneal, 180 mg/kg single dose).
